Published values collected from several papers.
Each numbered part is a random draw from the data of one study; scales do not carry over between parts. Changes are numbered by the printed parent chain.

Series 1
Target: Fragile X messenger ribonucleoprotein 1, C-terminal low-complexity region (Fmr1, Mus musculus, UniProt P35922)
Method: RNA Bind-n-Seq
Form: RNA
Sample: in vitro
Concentration: 200 nM
Setting: whole 134-nt RNA, ends assumed
Together with: 150 mM LiCl
Relative to: input library
Reading: higher = stronger binding
Library: 7-deaza-guanosine replaces G
All sequences stand within: GGGAGUUCUACAGUCCGACGAUC … UGGAAUUCUCGGGUGUCAAGG
Sequence | log2 enrichment
UCAAGUCCUGUGCUACACAUCGUAUGUACCGAAUCGGGGAGGGGAGGGGUGGGGAAAGUAUUAUGUUACGCCGUUCGGAUCUGCACUUCC | -0.0189
UCCUGUGCUACACAUCGUAUGUACCGAAUCGGGUUUUUGGGUUUUUUUGGGAAAAAGGGAAAGUAUUAUGUUACGCCGUUCGGAUCUGCA | -0.615
ACAAGUGGAGGAGAAGAACUUAGAAGAACUAGAGGAGAAAUCUACUACUCCUCCUCCGGCAGAACCUGUUUCUCUGCCACAAGAACCACC | 1.36
ACCAUGCAGGUGGGCAUCUUUGGGAAGUGGGGCAAGGGGGGGAUAGGGAGGGGGGUAACACCUUGGGAACAGGUGGUCCCAGGUCGUUUC | 1.34
UUCCGCGACUACCGGCGUGUGCACAAGCCGCCCAAGGUGCAGGAGAAGUGCCAGCUGGAGAUCAACUUCAACACGCUGCAGACCAAGCUG | -2.82
CAAGUCCUGUGCUACACAUCGUAUGUACCGAAUCGGCCCGGGCCCGGGCCCGGGGAAAGUAUUAUGUUACGCCGUUCGGAUCUGCACUUC | -2.96

Series 2
Target: ABI1, truncated, D143A, DHFR fusion (Arabidopsis thaliana)
Method: DHFR PCA, deep sequencing
Sample: yeast
Setting: methotrexate growth selection, single substitutions
Together with: (+)-ABA 1.4 µM
Relative to: wild-type fitted maximum
Reading: higher = stronger binding
Parent: PYL1, truncated, DHFR fusion (Arabidopsis thaliana); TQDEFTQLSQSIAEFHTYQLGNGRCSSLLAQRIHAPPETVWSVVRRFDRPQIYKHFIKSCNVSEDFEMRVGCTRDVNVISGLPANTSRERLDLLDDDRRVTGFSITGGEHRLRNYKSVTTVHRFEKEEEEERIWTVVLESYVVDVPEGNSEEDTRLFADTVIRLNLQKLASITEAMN
Change | relative binding score [%]
R45N | -8.66
D95V | -10
G81I | -11.5
S59G | 24.9
I162S | 8.85
S9Q | 74.1

Series 3
Target: Protein C-ets-1 (ETS1, Homo sapiens, UniProt P14921, residues 1-441, full length assumed)
Method: protein-binding microarray
Form: double-stranded DNA, one strand shown
Sample: in vitro
Concentration: not given
Setting: k-mer, scored over probes, only values ≥0.25
Reading: higher = stronger binding
Residues (chain): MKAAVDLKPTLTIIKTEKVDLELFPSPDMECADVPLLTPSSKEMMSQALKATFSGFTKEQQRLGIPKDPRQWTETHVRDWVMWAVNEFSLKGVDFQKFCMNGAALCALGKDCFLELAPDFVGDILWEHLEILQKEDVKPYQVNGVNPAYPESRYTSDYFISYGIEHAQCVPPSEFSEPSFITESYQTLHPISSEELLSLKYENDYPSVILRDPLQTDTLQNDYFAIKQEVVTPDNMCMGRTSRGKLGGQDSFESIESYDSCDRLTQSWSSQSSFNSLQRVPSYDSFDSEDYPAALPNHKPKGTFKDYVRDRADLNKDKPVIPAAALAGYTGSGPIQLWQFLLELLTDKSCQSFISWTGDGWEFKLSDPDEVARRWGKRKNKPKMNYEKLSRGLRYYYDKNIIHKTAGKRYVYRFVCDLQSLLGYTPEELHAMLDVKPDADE
Sequence | E-score
ACGGATGG | 0.393
CACCGGTA | 0.314
CAGGACGA | 0.282
ATATCCGG | 0.485
CCCACCGG | 0.308
AAACCGGA | 0.447
ACCGGGGG | 0.33

Other studies, line by line
Substance | target | assay | system | setting | scale | endpoint | result
PhoQ, residues 284 288 289 292 302 303 TTCLQL | PhoP, residues 12 14 15 18 19 LHSVW (Escherichia coli, UniProt P23836) | Sort-seq, item: YFP reporter | E. coli | PhoQ-PhoP variant library, together with: 10 µM Mg2+ | relative to: high Mg2+ state, higher = stronger signaling | fold induction | 2.36
